Experimental data pooled from the literature.
Parts stem from different laboratories: compare values within a part only.
Chain of UniProt P32298 (whole entry, looked up): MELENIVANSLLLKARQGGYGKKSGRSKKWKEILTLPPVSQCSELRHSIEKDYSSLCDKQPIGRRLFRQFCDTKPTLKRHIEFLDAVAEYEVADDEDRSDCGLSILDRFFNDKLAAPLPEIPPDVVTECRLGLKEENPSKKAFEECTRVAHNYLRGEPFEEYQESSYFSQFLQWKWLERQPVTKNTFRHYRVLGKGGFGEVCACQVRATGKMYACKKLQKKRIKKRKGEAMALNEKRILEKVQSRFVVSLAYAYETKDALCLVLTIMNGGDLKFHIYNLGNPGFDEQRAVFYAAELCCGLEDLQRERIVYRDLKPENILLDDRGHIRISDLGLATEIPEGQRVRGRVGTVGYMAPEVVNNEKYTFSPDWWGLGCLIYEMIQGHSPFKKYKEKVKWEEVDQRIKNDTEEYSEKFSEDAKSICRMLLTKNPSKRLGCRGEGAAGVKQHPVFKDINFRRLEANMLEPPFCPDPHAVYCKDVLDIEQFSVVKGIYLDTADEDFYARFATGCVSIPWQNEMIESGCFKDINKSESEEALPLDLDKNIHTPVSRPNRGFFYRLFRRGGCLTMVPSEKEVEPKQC
Chain of UniProt P08913 (whole entry, looked up): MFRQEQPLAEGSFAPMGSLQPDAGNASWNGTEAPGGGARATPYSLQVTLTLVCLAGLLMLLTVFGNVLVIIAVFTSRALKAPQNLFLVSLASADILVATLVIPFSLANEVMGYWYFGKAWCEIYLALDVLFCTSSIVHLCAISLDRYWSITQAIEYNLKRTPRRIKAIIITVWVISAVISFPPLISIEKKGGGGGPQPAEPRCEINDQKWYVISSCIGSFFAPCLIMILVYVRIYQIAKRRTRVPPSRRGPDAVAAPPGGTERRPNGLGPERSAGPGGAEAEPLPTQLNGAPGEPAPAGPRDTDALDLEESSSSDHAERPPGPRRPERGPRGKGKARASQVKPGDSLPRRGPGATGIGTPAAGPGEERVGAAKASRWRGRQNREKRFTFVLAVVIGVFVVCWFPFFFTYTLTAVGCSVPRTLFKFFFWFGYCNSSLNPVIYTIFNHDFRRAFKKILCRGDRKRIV
Chain of UniProt Q8N4C8 (whole entry, looked up): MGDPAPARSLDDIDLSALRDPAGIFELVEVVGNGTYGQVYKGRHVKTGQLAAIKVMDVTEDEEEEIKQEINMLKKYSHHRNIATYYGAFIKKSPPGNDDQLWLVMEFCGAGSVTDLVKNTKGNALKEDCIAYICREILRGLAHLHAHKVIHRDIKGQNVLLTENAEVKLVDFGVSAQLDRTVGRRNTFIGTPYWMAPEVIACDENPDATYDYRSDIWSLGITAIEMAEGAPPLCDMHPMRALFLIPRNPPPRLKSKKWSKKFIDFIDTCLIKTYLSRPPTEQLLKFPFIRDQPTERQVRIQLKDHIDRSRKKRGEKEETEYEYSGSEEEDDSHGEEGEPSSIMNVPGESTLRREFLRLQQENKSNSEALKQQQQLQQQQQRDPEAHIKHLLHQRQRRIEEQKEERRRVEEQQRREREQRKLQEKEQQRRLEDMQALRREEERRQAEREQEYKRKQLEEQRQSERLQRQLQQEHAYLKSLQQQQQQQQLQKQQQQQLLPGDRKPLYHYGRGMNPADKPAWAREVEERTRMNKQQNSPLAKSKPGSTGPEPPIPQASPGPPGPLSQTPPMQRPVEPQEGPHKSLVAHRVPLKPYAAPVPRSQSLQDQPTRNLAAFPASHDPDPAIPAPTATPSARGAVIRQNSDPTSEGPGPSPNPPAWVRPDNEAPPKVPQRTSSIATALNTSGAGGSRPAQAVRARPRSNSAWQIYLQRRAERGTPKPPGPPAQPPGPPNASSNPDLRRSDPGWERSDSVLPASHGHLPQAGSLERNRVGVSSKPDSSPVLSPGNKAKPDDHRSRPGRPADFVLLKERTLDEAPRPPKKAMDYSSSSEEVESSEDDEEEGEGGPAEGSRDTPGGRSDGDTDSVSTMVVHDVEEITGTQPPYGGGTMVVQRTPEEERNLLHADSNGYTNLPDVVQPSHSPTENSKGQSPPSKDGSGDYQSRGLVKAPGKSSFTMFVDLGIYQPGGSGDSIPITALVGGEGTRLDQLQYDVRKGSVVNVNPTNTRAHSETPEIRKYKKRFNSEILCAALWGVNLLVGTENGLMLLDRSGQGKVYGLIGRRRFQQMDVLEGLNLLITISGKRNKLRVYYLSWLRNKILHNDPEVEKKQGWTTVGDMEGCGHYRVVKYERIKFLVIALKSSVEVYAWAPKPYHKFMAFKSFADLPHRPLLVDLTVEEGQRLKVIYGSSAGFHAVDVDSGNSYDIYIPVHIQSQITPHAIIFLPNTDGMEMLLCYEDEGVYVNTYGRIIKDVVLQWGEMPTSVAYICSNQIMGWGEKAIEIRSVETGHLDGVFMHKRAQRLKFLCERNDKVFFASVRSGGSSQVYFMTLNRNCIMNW
Chain of UniProt P53355 (whole entry, looked up): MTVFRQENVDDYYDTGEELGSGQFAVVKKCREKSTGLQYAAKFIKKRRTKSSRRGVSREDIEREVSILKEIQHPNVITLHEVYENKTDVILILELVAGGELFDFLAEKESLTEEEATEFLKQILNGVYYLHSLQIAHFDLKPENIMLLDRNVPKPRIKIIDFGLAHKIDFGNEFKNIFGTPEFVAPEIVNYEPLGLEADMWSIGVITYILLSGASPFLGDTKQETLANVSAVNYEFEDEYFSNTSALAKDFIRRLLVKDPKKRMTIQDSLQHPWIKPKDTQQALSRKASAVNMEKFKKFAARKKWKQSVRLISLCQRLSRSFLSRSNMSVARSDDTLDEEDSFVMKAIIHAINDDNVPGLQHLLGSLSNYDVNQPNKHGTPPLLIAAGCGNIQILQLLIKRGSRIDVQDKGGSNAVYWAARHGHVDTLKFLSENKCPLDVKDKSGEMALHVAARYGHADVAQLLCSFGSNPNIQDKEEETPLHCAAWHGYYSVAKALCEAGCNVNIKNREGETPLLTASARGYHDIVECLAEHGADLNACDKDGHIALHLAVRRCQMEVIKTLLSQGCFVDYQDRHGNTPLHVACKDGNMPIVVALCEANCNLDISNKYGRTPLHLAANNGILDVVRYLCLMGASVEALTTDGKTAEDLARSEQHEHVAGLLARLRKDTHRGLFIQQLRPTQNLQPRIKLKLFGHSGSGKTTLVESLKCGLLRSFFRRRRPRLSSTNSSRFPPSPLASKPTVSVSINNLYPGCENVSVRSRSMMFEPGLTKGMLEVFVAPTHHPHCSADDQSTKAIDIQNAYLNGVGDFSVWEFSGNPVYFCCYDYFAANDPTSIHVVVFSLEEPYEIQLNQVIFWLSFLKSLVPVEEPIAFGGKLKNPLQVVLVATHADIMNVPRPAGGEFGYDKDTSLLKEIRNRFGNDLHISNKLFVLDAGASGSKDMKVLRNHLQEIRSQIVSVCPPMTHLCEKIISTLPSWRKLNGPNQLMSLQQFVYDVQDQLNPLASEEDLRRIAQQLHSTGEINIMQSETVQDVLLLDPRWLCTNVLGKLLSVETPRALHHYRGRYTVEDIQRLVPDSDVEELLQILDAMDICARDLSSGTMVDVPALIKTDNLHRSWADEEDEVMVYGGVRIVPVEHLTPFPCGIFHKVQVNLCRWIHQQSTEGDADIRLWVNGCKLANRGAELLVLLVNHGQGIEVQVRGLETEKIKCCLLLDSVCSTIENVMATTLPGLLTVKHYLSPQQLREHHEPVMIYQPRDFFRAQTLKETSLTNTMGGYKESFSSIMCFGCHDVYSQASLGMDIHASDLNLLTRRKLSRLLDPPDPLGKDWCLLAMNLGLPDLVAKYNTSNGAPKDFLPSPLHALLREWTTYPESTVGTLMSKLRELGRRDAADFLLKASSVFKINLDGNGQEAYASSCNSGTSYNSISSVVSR
Chain of UniProt P31751 (whole entry, looked up): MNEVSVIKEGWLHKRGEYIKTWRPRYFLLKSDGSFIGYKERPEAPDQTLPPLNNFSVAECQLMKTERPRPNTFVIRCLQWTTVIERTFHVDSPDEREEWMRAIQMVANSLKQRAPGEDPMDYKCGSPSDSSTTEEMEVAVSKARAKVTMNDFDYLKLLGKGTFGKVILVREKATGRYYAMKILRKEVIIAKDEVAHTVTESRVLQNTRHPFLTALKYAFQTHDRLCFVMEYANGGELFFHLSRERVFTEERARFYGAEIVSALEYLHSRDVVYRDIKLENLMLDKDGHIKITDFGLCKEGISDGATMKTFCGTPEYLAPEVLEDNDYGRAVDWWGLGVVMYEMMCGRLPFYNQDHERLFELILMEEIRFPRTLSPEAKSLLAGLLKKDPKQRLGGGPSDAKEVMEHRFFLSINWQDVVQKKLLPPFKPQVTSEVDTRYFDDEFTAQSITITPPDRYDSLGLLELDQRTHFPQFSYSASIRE
Chain of UniProt Q13237 (whole entry, looked up): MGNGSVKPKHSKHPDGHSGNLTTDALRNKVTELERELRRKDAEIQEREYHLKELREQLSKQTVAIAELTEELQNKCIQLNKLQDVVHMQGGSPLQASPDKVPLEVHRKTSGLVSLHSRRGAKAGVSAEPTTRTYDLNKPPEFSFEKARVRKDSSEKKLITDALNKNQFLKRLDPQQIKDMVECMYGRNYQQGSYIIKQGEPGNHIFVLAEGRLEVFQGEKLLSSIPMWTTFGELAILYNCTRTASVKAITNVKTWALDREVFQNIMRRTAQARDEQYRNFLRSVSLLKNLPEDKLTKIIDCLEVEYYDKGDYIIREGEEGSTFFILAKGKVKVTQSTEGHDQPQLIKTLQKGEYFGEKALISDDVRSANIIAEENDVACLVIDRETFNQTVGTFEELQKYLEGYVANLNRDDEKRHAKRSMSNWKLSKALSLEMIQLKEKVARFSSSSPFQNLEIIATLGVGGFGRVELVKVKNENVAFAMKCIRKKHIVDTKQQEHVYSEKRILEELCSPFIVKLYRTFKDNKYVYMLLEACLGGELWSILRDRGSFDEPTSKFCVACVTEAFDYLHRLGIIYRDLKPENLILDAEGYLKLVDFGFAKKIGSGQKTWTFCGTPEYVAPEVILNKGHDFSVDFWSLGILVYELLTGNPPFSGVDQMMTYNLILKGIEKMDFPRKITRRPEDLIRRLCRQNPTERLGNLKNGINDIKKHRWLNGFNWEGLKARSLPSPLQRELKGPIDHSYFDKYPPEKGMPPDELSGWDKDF

Sample 1
Compound: CCC(=O)N[C@H]1CC[C@@H](C(=O)N(C)c2ccc(-c3nc4ccccc4o3)cc2)C1
Effect on: binding
Technique: radioligand binding
Concentration: 10 µM
target	inhibition
ADRA2A (Homo sapiens, UniProt P08913)	-10.7%
DRD3 (Homo sapiens, UniProt P35462)	12.1%
SIGMAR1 (Homo sapiens, UniProt Q99720)	9.78%
TMEM97 (Homo sapiens, UniProt Q5BJF2)	33.6%
ADRB1 (Homo sapiens, UniProt P08588)	-4.07%
ADRA1A (Homo sapiens, UniProt P35348)	22.1%

Sample 2
SMILES: C=CC(=O)N1CCC[C@@H](n2nc(-c3ccc(Oc4ccccc4)cc3)c3c(N)ncnc32)C1
Mode: inhibitor
Concentration: 1 µM
target	assay	inhibition [%]
NTRK1 (Homo sapiens, UniProt P04629)		9
MAPK10 (Homo sapiens, UniProt P53779)	enzyme activity	46
ALK (Homo sapiens, UniProt Q9UM73, C1156Y)		0
TGFBR2 (Homo sapiens, UniProt P37173)	enzyme activity	4
STK17B (Homo sapiens, UniProt O94768)	enzyme activity	10

Sample 3
Structure (SMILES): CC(C)[C@H](CO)Nc1nc(Nc2cccc(Cl)c2)c2ncn(C(C)C)c2n1
Effect on: enzyme activity
Mode: inhibitor
Concentration: 0.5 µM
Relative to: control
target	remaining activity
PNCK (Homo sapiens, UniProt Q6P2M8)	97.8%
RPS6KA4 (Homo sapiens, UniProt O75676)	90.1%
MAPK1 (Homo sapiens, UniProt P28482)	86.7%
CLK4 (Homo sapiens, UniProt Q9HAZ1)	50.9%
KDR (Homo sapiens, UniProt P35968)	95%
MINK1 (Homo sapiens, UniProt Q8N4C8)	98.6%
AKT2 (Homo sapiens, UniProt P31751)	90%
MARK2 (Homo sapiens, UniProt Q7KZI7)	95.7%
GRK4 (Homo sapiens, UniProt P32298)	91.1%
MAPK14 (Homo sapiens, UniProt Q16539)	99.4%
ROCK1 (Homo sapiens, UniProt Q13464)	100%
MET (Homo sapiens, UniProt P08581)	96.2%
NEK3 (Homo sapiens, UniProt P51956)	94.2%
PRKG2 (Homo sapiens, UniProt Q13237)	89.3%

Sample 4
Compound: COc1ccc2[nH]c3c4[nH]c5ccc(OC)cc5c4c4c(c3c2c1)C(=O)NC4=O
Concentration: 1 µM
target	assay	setting	how to read	remaining binding [%]
DAPK1 (Homo sapiens, UniProt P53355)	competitive binding panel		relative to: vehicle	22
PIK3CD (Homo sapiens, UniProt O00329)	competitive binding panel		relative to: vehicle	64
Aurora kinase B (AURKB, Homo sapiens, UniProt Q96GD4)	competitive binding panel		relative to: vehicle	16
PTK6 (Homo sapiens, UniProt Q13882)	competitive binding	BRK		81
ITK (Homo sapiens, UniProt Q08881)	competitive binding panel		relative to: vehicle	89
CDK13 (Homo sapiens, UniProt Q14004)	competitive binding panel, refers to: CDC2L5		relative to: vehicle	100
